Assay results collected from several papers.
A part holds a random share of what one study measured. Values joined by “and” are separate records of one study, mostly repeats; a detail may differ.
Chain of UniProt P42681 (whole entry, looked up): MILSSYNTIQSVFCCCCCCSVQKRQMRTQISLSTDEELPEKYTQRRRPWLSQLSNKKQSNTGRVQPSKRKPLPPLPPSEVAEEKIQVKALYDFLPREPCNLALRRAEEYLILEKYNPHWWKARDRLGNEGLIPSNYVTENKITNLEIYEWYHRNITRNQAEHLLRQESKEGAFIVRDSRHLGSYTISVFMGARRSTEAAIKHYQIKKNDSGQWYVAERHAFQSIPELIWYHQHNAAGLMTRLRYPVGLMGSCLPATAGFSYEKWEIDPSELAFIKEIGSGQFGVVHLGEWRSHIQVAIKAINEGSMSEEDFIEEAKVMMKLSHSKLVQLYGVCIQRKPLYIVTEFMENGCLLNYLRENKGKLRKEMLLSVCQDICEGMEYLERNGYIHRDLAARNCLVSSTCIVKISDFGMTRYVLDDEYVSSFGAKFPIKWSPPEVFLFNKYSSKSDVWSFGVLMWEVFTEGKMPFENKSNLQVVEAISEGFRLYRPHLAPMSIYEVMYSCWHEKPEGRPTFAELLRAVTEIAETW
Chain of UniProt Q9HAZ1 (whole entry, looked up): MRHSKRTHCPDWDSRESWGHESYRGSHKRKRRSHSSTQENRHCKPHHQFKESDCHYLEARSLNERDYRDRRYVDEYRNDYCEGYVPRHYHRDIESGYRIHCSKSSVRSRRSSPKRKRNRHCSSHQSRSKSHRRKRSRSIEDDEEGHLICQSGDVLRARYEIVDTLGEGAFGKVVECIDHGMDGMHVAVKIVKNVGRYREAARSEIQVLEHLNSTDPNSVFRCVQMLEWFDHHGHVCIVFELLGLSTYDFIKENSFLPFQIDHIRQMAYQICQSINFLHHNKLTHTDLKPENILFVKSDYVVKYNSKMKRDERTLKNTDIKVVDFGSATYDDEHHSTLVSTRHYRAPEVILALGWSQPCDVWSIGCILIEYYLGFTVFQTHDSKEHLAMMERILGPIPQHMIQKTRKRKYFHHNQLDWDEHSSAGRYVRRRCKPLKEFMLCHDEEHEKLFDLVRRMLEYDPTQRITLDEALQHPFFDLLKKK
Chain of UniProt P32298 (whole entry, looked up): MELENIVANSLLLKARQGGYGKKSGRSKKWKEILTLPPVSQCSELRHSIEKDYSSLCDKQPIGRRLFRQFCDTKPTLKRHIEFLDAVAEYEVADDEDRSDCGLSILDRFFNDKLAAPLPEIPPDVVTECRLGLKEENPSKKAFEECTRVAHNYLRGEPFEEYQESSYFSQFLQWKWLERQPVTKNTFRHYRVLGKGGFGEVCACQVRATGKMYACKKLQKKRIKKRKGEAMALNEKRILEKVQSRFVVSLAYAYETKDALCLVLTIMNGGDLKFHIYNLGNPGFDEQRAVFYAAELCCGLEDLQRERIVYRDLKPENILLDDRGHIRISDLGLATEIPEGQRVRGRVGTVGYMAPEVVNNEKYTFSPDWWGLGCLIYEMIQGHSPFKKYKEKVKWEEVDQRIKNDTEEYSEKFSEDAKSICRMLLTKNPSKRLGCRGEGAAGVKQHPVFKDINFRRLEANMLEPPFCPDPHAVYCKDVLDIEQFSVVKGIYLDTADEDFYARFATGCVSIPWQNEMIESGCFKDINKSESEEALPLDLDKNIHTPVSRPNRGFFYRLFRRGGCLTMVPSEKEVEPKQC
Chain of UniProt Q8WXR4 (whole entry, looked up): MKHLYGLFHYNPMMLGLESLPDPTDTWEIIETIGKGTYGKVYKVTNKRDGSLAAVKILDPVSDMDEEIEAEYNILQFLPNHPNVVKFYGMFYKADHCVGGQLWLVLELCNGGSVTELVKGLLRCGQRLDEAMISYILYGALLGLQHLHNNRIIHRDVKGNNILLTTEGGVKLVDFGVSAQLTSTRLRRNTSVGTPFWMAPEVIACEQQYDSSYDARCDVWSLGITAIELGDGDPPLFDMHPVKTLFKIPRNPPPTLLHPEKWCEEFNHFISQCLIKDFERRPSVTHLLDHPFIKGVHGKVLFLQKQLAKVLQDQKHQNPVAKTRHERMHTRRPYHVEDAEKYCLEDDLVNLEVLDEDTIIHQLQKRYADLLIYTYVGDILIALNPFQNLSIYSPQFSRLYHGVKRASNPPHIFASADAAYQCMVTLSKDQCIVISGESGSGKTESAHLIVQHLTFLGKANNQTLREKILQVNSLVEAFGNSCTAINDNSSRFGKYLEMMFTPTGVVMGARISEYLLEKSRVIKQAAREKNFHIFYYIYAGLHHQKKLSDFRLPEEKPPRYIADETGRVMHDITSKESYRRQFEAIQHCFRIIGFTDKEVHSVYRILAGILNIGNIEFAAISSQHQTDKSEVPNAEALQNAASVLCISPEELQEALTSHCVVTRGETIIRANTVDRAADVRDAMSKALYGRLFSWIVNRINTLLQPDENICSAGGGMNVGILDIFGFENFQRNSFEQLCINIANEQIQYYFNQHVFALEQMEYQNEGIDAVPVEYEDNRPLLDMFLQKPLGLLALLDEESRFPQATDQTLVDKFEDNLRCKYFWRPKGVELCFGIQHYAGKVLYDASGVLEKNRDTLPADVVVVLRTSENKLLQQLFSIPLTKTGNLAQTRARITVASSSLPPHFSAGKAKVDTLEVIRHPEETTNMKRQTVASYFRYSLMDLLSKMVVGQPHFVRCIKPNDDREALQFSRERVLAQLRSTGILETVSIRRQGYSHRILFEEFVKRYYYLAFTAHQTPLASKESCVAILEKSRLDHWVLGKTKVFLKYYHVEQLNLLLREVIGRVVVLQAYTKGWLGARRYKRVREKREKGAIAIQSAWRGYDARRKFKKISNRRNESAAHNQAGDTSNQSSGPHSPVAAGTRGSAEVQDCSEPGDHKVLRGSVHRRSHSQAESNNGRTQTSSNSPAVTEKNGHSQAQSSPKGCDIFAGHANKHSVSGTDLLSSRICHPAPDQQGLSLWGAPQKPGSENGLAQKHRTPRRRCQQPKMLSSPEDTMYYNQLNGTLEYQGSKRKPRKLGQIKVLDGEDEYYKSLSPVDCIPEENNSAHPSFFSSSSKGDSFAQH
Chain of UniProt Q8N4C8 (whole entry, looked up): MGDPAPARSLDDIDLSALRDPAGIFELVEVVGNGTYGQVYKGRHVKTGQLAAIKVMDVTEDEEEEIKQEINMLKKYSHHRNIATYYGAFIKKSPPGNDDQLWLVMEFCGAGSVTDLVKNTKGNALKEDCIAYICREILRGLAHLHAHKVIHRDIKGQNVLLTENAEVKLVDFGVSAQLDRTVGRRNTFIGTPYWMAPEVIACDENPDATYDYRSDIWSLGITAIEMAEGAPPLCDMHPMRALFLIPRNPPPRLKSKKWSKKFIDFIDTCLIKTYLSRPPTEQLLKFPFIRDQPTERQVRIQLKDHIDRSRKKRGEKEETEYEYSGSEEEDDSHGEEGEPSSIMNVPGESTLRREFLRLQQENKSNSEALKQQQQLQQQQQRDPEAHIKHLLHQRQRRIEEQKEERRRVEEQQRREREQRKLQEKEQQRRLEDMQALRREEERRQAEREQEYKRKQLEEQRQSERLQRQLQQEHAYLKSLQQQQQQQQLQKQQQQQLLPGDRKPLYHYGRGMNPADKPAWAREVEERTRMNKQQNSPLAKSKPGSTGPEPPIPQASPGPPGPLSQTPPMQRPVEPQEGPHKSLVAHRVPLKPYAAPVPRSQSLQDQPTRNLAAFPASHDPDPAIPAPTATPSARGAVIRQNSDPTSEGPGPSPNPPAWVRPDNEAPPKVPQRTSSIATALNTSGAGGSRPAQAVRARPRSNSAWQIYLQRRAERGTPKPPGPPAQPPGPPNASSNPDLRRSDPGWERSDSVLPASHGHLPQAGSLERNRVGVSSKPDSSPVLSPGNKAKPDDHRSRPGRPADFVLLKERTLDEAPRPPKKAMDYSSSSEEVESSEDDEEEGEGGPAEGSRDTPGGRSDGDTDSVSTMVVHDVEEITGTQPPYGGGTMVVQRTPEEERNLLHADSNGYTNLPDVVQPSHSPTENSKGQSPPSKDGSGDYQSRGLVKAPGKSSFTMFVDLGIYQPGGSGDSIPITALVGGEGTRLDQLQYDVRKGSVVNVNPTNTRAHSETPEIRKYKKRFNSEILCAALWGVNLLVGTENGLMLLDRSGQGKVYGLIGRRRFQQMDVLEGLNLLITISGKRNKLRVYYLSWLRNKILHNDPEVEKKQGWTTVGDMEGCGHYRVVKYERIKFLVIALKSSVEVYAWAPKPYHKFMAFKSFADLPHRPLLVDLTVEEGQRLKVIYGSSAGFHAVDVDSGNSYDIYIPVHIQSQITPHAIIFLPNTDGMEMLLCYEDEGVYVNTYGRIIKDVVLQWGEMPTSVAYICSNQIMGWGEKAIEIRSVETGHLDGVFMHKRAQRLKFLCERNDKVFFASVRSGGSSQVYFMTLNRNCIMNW
Chain of UniProt Q5BJF2 (whole entry, looked up): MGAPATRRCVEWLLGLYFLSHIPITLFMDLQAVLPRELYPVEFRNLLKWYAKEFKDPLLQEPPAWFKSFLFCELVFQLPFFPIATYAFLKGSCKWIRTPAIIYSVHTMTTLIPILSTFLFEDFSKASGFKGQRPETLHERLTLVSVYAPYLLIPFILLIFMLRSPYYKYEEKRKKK

Sample 1 — technique: protein-binding microarray; molecule type: double-stranded DNA, one strand shown; sample: in vitro; tested at: 2200 nM top; setting: 60-bp whole probe; with: salmon DNA 0.4 mg/ml; baseline: random background probes; reading: higher = stronger binding; shared flanks, not repeated: GCCTAGCAC … GTCTTGATTCGCTTGACGCTGCTG
Target: Interferon regulatory factor 7, full length, phosphomimetic (IRF7, Homo sapiens, UniProt Q92985, residues 1-503, S471D/S472D/S475D/S476D/S477D/S483D/S484D/S487D)
Chain of UniProt Q92985 (whole entry, unmodified, looked up): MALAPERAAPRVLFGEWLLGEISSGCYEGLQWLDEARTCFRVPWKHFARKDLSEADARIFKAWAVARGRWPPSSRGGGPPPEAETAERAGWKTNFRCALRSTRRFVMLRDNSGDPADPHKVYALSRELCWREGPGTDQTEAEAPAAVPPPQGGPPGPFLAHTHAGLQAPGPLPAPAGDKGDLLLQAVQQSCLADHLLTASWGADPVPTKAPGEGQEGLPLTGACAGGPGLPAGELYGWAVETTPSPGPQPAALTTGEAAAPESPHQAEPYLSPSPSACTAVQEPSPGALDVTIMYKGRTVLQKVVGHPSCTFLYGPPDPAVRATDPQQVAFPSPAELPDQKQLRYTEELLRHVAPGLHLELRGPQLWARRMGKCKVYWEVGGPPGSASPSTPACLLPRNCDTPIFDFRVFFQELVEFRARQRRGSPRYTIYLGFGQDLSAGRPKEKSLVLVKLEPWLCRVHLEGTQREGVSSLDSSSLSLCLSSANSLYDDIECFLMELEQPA
Oligonucleotide	fitted relative affinity
GACGATTTCGGGTTTCGAGACGTGCTA	5.47 z-score
TGGCCTATTTATATGAGATGGTGCTAG	-0.0273 z-score
TTAGGTCTCCTTATCCTTTTGTGCTAG	1.26 z-score
TGGTGTCTCTGGCCTGGGTCGGTGCTA	-0.433 z-score
GAGGGACTGGACACTGGGGACGTGCTA	-1.04 z-score
TCACAAGTTTCACGTCTTACTGTGCTA	1.84 z-score
GCCGATATCGGGTTTCGAGACGTGCTA	1.76 z-score
TTGGATATCGGGTATCGATTAGTGCTA	0.219 z-score

Sample 2 — observed: enzyme activity; action: inhibitor; tested at: 0.5 µM; baseline: control
SMILES: Nc1nccc(-c2c(-c3ccc(F)cc3)ncn2C2CCNCC2)n1
target	remaining activity
TLK2 (Homo sapiens, UniProt Q86UE8)	95.1%
MARK4 (Homo sapiens, UniProt Q96L34)	97.4%
NEK3 (Homo sapiens, UniProt P51956)	99%
CAMK4 (Homo sapiens, UniProt Q16566)	103%
CLK4 (Homo sapiens, UniProt Q9HAZ1)	96.9%
ROCK1 (Homo sapiens, UniProt Q13464)	103%
GRK4 (Homo sapiens, UniProt P32298)	96.9%
MET (Homo sapiens, UniProt P08581)	104%
PAK3 (Homo sapiens, UniProt O75914)	105%
MAPK1 (Homo sapiens, UniProt P28482)	96.6%
TXK (Homo sapiens, UniProt P42681)	99.1%
MINK1 (Homo sapiens, UniProt Q8N4C8)	96.1%
Myosin-IIIb (MYO3B, Homo sapiens, UniProt Q8WXR4)	97.9%

Sample 3 — technique: RNAcompete; molecule type: RNA; sample: in vitro; tested at: 20 nM; setting: 7-mer, probes averaged, single round; baseline: mean of 7-mers; reading: higher = stronger binding
Target: PABPC1L2, full length, GST fusion (mouse, UniProt A0ABA7IW68)
Oligonucleotide	7-mer Z-score
AGCAGCG	-0.0192
CUCAGAA	0.119
UAGUGCC	-0.249
GCAUGAC	0.00979
CAAUACA	0.285
AGUUUUC	-0.409
ACGUACG	-0.0518
UUGCUCC	-0.4

Mixed results
SMILES	target or system	test	setting	measurement	result
CCc1ccccc1C(=O)Nc1n[nH]c2c(C)c(F)c(C3C(C#N)=C(C)N(C)C(C)=C3C#N)cc12	NEK10 (Homo sapiens, UniProt Q6ZWH5)	cell-free assay, competition with immobilised ligand	1 µM	remaining binding	100%
COc1ccc2c(c1)O[C@H](c1ccc(OC)c(OC)c1)C[C@@H]2NC(=O)C1(c2ccc3c(c2)OC(F)(F)O3)CC1 (single isomer, unassigned)	TMEM97 (Homo sapiens, UniProt Q5BJF2)	binding	off-target scan	Ki	1190 nM
Cn1cncc1[C@@](O)(COc1ccc(C#N)cc1-c1ccc(OC(F)(F)F)cc1)c1ccc(C#N)cc1	HEK293T	high-content imaging	10 µM, 12 h	cells with healthy nuclei	65.8% and 36.4%
